Experimental data collected from several papers.
Every numbered part comes from another study and shows a few of its results, in no order.

Sample 1 — method: RNA Bind-n-Seq; molecule type: RNA; matrix: in vitro; tested at: 365 nM; relative to: no-protein control; reading: higher = stronger binding; endpoint: RBNS enrichment (R)
Target: RNA binding protein fox-1 homolog 2, RRM domain, GST-SBP tag (RBFOX2, Homo sapiens, UniProt O43251-10, residues 100-194)
Notes: natural RNA segment, single round, ends assumed
Residues (chain): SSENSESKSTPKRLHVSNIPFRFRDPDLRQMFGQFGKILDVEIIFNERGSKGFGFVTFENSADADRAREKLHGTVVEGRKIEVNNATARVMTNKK
GGGAGUUCUACAGUCCGACGAUCGUGCCCUGUCUACCUUCCCCAGGCAAGAAGAGCCAGGAGGGCACAGGGCUUGCACGUCACUCUGGUCUGUUCAUCGUGGUUCACAGGGCAAGGUGAAAGACACUUGAAUUUGGAAUUCUCGGGUGCCAA: 0.426
GGGAGUUCUACAGUCCGACGAUCGCUCAUCACCCUAGGUUCUACAGGAAAUACAGAGAUGAACAACUUUGCCUUCAAAAAUGUGCUGCCUAGAAACAGACCUGCAUUCAACCAACUGUAAUGCAGGAUUGGACUGGAAUUCUCGGGUGCCAA: 0.268
GGGAGUUCUACAGUCCGACGAUCAUCCAAGGACCGCCUGUUCAUAAGCUAUGCUCCAGAGGCUGCCGAUUCACUCGUGUGCACGGAGGGGGUGCUCCAGAUGGGAAUCACACAGGGCUUUCUUCACUCUUGGUUGGAAUUCUCGGGUGCCAA: 1.14
GGGAGUUCUACAGUCCGACGAUCAUGGGGUGUCCUGGCCCUUAGUGACACAGCUCCUCUCUGGGGCACCCUAUCUGCUUGUCUCGUCCAGGAAGCGUUAGGGCUGAUGGGUGACUCAGCAAGGCAGUGUCAGAUGGAAUUCUCGGGUGCCAA: 0.337

Sample 2 — method: protein binding microarray; molecule type: double-stranded DNA, one strand shown; matrix: in vitro; tested at: not given; relative to: not given; reading: higher = stronger binding; endpoint: E-score
Target: Histone acetyltransferase KAT6A, winged helix 2, GST fusion (KAT6A, Homo sapiens, UniProt Q92794, residues 85-181)
Notes: 8-mer, flanks averaged, mean of 2 arrays, mostly near background
Residues (chain): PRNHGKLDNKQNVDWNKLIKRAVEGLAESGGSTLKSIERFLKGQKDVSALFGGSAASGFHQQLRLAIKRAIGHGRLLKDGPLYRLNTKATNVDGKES
ATAACTTA: 0.0712
ACCGAAGA: 0.0752
CCTAGAAA: -0.158
AGTAACTG: -0.148

Other studies, line by line
SALL4 full length isoform B: Sal-like protein 4, full length isoform B (SALL4, Homo sapiens, UniProt Q9UJQ4-2, residues 1-616)
GCTTCTCC — E-score (SALL4 full length isoform B; universal PBM; double-stranded DNA, one strand shown, in vitro; not given, 8-mer, flanks averaged, mean of replicates; higher = stronger binding): -0.159
PhoQ, residues 284 288 289 292 302 303 SLGVVW — fold induction (PhoP, residues 12 14 15 18 19 NHFIF (Escherichia coli, UniProt P23836); Sort-seq, refers to: YFP reporter; E. coli; PhoQ-PhoP variant library, added: 10 µM Mg2+; relative to: high Mg2+ state, higher = stronger signaling): 2.74
ACCGACCA — E-score (Sal-like protein 4, full length isoform A (SALL4, Homo sapiens, UniProt Q9UJQ4, residues 1-1053); universal PBM; double-stranded DNA, one strand shown, in vitro; 600 nM, 8-mer, flanks averaged, mean of replicates; higher = stronger binding): -0.193
CACTAATG — E-score (SALL4 full length isoform B; universal PBM; double-stranded DNA, one strand shown, in vitro; not given, 8-mer, flanks averaged, mean of replicates; higher = stronger binding): 0.0941

Excerpt of the above (sample 1):
GGGAGUUCUACAGUCCGACGAUCAUGGGGUGUCCUGGCCCUUAGUGACACAGCUCCUCUCUGGGGCACCCUAUCUGCUUGUCUCGUCCAGGAAGCGUUAGGGCUGAUGGGUGACUCAGCAAGGCAGUGUCAGAUGGAAUUCUCGGGUGCCAA: 0.337
